Published values from different studies.
Each line is one published result; not all experiments were run side by side.

Compound = CN(C)C(=O)c1cc2cnc(Nc3ccc(N4CCNCC4)cn3)nc2n1C1CCCC1; assay = measured: pulmonary embolism; test system = human, HR+/HER2− advanced breast cancer; conditions = oral, dose not given, grade 4, CTCAE v4.03; quantity = patients with adverse event; value = 0.3%
Compound = C=CC(=O)Nc1cc(Nc2nccc(Nc3cc(Cl)c(F)cc3C(C)(C)O)n2)c(OC)cc1N1CC[C@@H](N(C)C)C1; test system = human patients; conditions = oral, 50 mg, treatment-emergent adverse events; quantity = patients with lipase increased; value = 0%
Compound = Cc1cn([C@H]2O[C@@H](CO[P@@](=O)(N[C@@H](C)C(=O)OC(C)C)Oc3ccccc3)[C@H](O)[C@H]2F)c(=O)[nH]c1=O; assay = measured: grade 1/2; test system = human; conditions = 25 mg; quantity = patients with ALT/AST elevation; value = 0%
Compound = C[C@@H]1OC(=O)NN=C1c1ccc(-c2ccc(F)cc2)c(C(F)(F)F)c1; assay = phase I trial, measured: muscle spasms worst grade 1; test system = human patients; conditions = 20 mg loading then 1 mg daily; quantity = patients with adverse event; value = 0%
Compound = COc1ccc(-c2c(-c3ccc(C#N)c(F)c3)nc(N3CCC(N)CC3)n(C)c2=O)cc1F; assay = measured: decreased appetite; test system = human patients; conditions = oral, dose not given, dose escalation; quantity = patients with serious TEAE; value = 2%
Compound = C[C@]1(O)C[C@@](N)(c2ccc(-c3nc4n(c3-c3ccccc3)COc3ccncc3-4)cc2)C1; test system = human, advanced or metastatic solid tumours; conditions = 16 mg once daily, phase I dose escalation; quantity = patients with TEAE; value = 100%
Compound = O=C1Nc2cc3[nH]nc(-c4ccncc4)c3cc2CN1Cc1ccccc1; assay = CTCAE v4.03; test system = human, relapsed or refractory advanced solid tumours; conditions = intravenous, 0.9 mg/kg, pooled schedules; quantity = patients with vomiting; value = 0%
Compound = COc1ncnn2ccc(-c3cnc4nc(C)n(Cc5nnc([C@@H](C)F)o5)c4c3)c12; test system = human; conditions = oral, dose not given, grade 3; quantity = patients with pyrexia; value = 0%

Some of these lines once more:
Compound = Cc1cn([C@H]2O[C@@H](CO[P@@](=O)(N[C@@H](C)C(=O)OC(C)C)Oc3ccccc3)[C@H](O)[C@H]2F)c(=O)[nH]c1=O; assay = measured: grade 1/2; test system = human; conditions = 25 mg; quantity = patients with ALT/AST elevation; value = 0%
